Experimental data gathered from unrelated publications.
Numbered parts are unrelated; each lists some results of a single study.

Set 1
Target: Histone acetyltransferase KAT6A, winged helix 2, GST fusion (KAT6A, Homo sapiens, UniProt Q92794, residues 85-181)
Method: protein binding microarray
Molecule type: double-stranded DNA, one strand shown
Sample: in vitro
Concentration: not given
Setting: 8-mer, flanks averaged, mean of 2 arrays, mostly near background
Relative to: not given
Direction: higher = stronger binding
Construct (chain): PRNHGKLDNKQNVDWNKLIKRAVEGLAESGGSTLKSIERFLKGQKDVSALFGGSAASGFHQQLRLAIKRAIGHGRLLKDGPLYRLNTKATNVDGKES
Oligonucleotide | E-score
ACACGCAG | -7.5e-05
CTGCAACC | -0.0888
GAGCGAAC | 0.0202
AGCAAGAG | 0.0612
CTCAGTTC | -0.203
ACGGCTGC | -0.0131
AGTACTAC | -0.175
ATAGGGCG | -0.00789
CCATTTGA | -0.0657
ACGTAAGC | -0.181
TCTTCCCA | -0.0919
GTGTGCGA | 0.00907
GTCCTCAA | 0.116
GAGTCCTA | -0.0438
GTAGTTCA | -0.134
AGTTTCCC | 0.15
GATTCACA | -0.0355
GCGACAGC | 0.155
GCGGAACA | 0.0242
ATAGTCAC | -0.062
CGATCAAA | -0.0315

Set 2
Target: RNA binding protein fox-1 homolog 2, RRM domain, GST-SBP tag (RBFOX2, Homo sapiens, UniProt O43251-10, residues 100-194)
Method: RNA Bind-n-Seq
Molecule type: RNA
Sample: in vitro
Concentration: 365 nM
Setting: natural RNA segment, single round, ends assumed
Relative to: no-protein control
Direction: higher = stronger binding
All sequences stand within: GGGAGUUCUACAGUCCGACGAUC … UGGAAUUCUCGGGUGCCAA
Target sequence (chain): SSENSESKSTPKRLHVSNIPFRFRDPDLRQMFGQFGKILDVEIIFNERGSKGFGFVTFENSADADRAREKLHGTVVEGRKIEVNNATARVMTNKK
Oligonucleotide | RBNS enrichment (R)
ACUUCUGCCUAUGGCUUACAGUUUGACAUUUAAUUUAUUAGCGCUGCUCUGCACCCCUCCCUUGGGAGGGAGACUUCAUGUGGUUUAUUGCGAGUUUUUUGUUUACUUUU | 0.455
CCCGUUGCAACUGGUCCCAGACCAGAAUGGCCUCCUCAGAAGGGGAGGUGCUCUUCAAAUCUCCCUUAGGGGCUGCAUACCUCCCCAGGUAAUCAAGCACGGAUCUUCUC | 0.391
CCUUGAGAUUGUCUUGGCAUGGCCCAGCCCUGCCUCAUGGGAUGGACAAUGCAUGGGGUGGUCUUUAUUUUUCCCUUUCAAAUAAAACACUAGUCAGGUACCGUUUUAUC | 1.51
AUAUGGCGACUCCUUUUCCAGAAACUUUUCUUACCUGUUGGUUGUCUUGUUUCCUGGGUUGUUUUUAACUGAAGACAAAAUUGCUCAUUUGCCAGAGGGGACAGAAGCAU | 0.627
UCUAGAGUCCACUGAGUCACAAUGGGGGCACAUGCUCAUGACUGUGUCACUUAGGGGCGGUCCCCACACUGAGUGAGAAAGGGGCAUCUGCCCUGUUGCUACUGUGAGGA | 0.293
UAUAACUUGAAUUUUAAAGAUAGUAGCAUUUUGAAGAUGCUUAAUAACCUUUUUAGGAAUAUGGAGAUAAAGAUUGUUUUUCUGAUUUUCUUCCAUCUGAAGUUUGACUU | 0.351
UGCCUGUGACUGCUUUCAAACGCUAGAGGGGGCCUCUGAUUUAAAGAAAUAAAAAGGACUUUUCUAAAAUGGAUGUGUAGUUUAUUUUGCCUUUUGUAAAGCUCUUUUGG | 1.3
CUAACCCAGCAUUGCCCAAACUAUUUUGACACCAGGACCUUUUUCUCCUUUGGGAUACUUAUGAACCUCUCACUAAUGUCCUGUGGAGAACAUUUUGGGAAACACUAUGU | 0.512

Set 3
Target: Interferon regulatory factor 5, full length, phosphomimetic (IRF5, Homo sapiens, UniProt Q13568-2, residues 1-514, S451D/S453D/S456D/S462D)
Method: protein-binding microarray
Molecule type: double-stranded DNA, one strand shown
Sample: in vitro
Concentration: 940 nM top
Setting: 60-bp whole probe
Added: salmon DNA 0.4 mg/ml
Relative to: random background probes
Direction: higher = stronger binding
All sequences stand within: GCCTAGCAC … GTCTTGATTCGCTTGACGCTGCTG
Oligonucleotide | fitted relative affinity [z-score]
GACGAACTGAGTCTTGAGACGTGCTAG | -0.438
TGGGGGGATCAGGGAAACAGGTGCTAG | 3.15
GACGATCTCAGACCGGAGACGTGCTAG | -0.361
GCCGGTTTCGGGTATCGGGACGTGCTA | 10.6
TGAAAACTAAGTTTATTAGAGTGCTAG | -0.335
GACGGTTCAGGTTTCGGGACGTGCTAG | 3.03
AAACCTCACAGTTTGTAAATGTGCTAG | -0.546
TTAGGTATCCGTCTCCTTTAGTGCTAG | 0.946
GACGGACTTGGGACTGGGGACGTGCTA | -0.256
GACGGACTGGGCTATCGGGACGTGCTA | -0.765
TCATATATATAATATATAACTGTGCTA | 0.362
GACGATATCGGGTGTCGAGACGTGCTA | 0.13
GACGGTATCGGGTATCGGGACGTGCTA | 5.61
GACGGTTTCCTACTGTTGACGTGCTAG | 0.722
GTGTATATACTATATGCATGTGTGCTA | 0.145
TCAACACTAATTTTCATACTGTGCTAG | 0.826
TTAGATCTCAGTCTCGATTGGTGCTAG | 3

Set 4
Target: Sal-like protein 4, full length isoform A (SALL4, Homo sapiens, UniProt Q9UJQ4, residues 1-1053)
Sequence of UniProt Q9UJQ4 (whole entry, looked up): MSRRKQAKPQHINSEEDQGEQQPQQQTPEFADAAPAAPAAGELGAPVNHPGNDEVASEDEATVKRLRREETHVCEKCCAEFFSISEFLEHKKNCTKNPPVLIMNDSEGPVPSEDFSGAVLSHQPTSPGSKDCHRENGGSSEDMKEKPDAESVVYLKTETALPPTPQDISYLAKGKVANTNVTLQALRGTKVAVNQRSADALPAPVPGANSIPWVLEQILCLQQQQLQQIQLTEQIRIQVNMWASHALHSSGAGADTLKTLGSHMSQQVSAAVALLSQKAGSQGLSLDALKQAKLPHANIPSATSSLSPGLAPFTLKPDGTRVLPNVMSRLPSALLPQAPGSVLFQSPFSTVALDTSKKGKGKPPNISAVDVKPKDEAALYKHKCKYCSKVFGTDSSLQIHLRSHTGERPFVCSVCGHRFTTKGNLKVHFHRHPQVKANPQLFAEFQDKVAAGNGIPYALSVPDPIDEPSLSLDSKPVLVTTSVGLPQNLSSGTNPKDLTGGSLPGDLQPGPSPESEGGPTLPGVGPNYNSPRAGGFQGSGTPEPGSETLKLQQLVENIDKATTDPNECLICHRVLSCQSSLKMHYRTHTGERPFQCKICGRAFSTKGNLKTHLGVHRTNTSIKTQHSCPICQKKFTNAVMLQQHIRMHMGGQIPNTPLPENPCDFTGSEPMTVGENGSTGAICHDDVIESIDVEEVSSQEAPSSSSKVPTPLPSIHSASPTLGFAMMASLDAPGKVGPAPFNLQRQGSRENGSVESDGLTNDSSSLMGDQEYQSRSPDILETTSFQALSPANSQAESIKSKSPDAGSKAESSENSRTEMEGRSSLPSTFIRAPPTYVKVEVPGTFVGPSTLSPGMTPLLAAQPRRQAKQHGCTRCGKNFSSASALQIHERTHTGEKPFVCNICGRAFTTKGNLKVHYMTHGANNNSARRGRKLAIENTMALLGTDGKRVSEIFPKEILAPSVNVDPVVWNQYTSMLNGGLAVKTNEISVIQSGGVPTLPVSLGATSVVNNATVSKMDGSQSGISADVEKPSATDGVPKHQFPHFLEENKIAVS
Method: universal PBM
Molecule type: double-stranded DNA, one strand shown
Sample: in vitro
Concentration: 600 nM
Setting: 8-mer, flanks averaged, mean of replicates
Direction: higher = stronger binding
Oligonucleotide | E-score
ATTATTTA | 0.422
CAACCTTG | -0.0563
CCTCAAAA | 0.0878
CGCCGGCC | -0.401
CTTTCTCA | 0.256
CCGAGCCG | -0.282
AGAATCAA | 0.0322
GCTCATCC | -0.242
TACGGGAA | -0.0496
ATATTTCC | 0.338
ATCCATTG | 0.0612
ACTATACT | 0.244
AAAGAACT | 0.00541
ACTGGACC | -0.328
ATAGCTAA | 0.207
AGGTATTC | 0.112
CCCGTCGC | -0.332
GCAGTGCC | -0.338
GTGTAGCA | -0.158
ATATCCTG | 0.132
CACTCCGA | -0.237
CTGGTTCC | -0.231
CGTATATC | 0.091

Set 5
Target: Prothrombin, mature alpha-thrombin (F2, Homo sapiens, UniProt P00734)
Method: aptamer microarray, sandwich
Molecule type: DNA with 2'F-ANA
Sample: in vitro
Concentration: 200 nM
Setting: whole 15-mer aptamer, many near background
Added: Cy3 exosite-II aptamer, 400 nM
Direction: higher = stronger binding
Oligonucleotide: GGTTGGTGTGGTTGG
Modification | mean fluorescence intensity [a.u.]
2'F-ANA at 1 3 5 7 8 12 13 14 | 58.4
2'F-ANA at 4 6 9 13 | 167
2'F-ANA at 1 2 3 4 6 7 9 11 14 15 | 56.2
2'F-ANA at 2 3 5 6 7 9 10 11 14 | 61.1
2'F-ANA at 3 4 5 6 7 13 14 15 | 200
2'F-ANA at 3 6 8 10 12 13 14 | 329
2'F-ANA at 2 3 7 9 13 14 | 399
2'F-ANA at 3 4 5 6 9 10 11 12 13 14 | 51.2
2'F-ANA at 3 4 5 6 7 8 9 10 11 13 14 | 50.7
2'F-ANA at 1 3 4 5 6 9 10 13 14 15 | 48.7
2'F-ANA at 2 3 4 6 8 11 12 14 15 | 245
2'F-ANA at 1 2 5 8 9 10 11 12 13 | 46.3
2'F-ANA at 1 2 3 5 7 9 10 12 13 15 | 54.1
2'F-ANA at 1 2 5 6 8 12 13 14 | 46.5
2'F-ANA at 1 2 4 5 6 9 10 11 13 14 | 48.5
2'F-ANA at 1 3 4 5 7 8 9 12 15 | 136
2'F-ANA at 1 2 3 4 5 6 7 9 10 12 14 15 | 49.6
2'F-ANA at 6 7 9 12 13 14 | 182
2'F-ANA at 5 6 9 14 | 51.9
2'F-ANA at 2 4 5 6 8 9 10 13 | 46.3
2'F-ANA at 3 4 10 11 12 | 361

Some of these lines once more (set 5):
Modification | mean fluorescence intensity [a.u.]
2'F-ANA at 2 3 5 6 7 9 10 11 14 | 61.1
2'F-ANA at 1 2 5 6 8 12 13 14 | 46.5
2'F-ANA at 1 3 4 5 7 8 9 12 15 | 136
2'F-ANA at 1 2 5 8 9 10 11 12 13 | 46.3
2'F-ANA at 5 6 9 14 | 51.9
2'F-ANA at 1 3 5 7 8 12 13 14 | 58.4
2'F-ANA at 3 6 8 10 12 13 14 | 329
2'F-ANA at 1 2 3 5 7 9 10 12 13 15 | 54.1
2'F-ANA at 6 7 9 12 13 14 | 182
2'F-ANA at 3 4 5 6 7 8 9 10 11 13 14 | 50.7
2'F-ANA at 1 3 4 5 6 9 10 13 14 15 | 48.7
2'F-ANA at 1 2 4 5 6 9 10 11 13 14 | 48.5
